Assay results collected from several papers.
Several values in a cell are separate wells, animals, samples, runs or records. ± marks the error that the study gave.

Compound	assay	system	conditions	scale	endpoint	result
CC(C)C[C@@H](NC(=O)[C@H](NC(=O)[C@H]1CCCN1)[C@H](C)O)C(=O)N[C@H](Cc1c[nH]cn1)C(=O)N[C@@H](C(=O)N[C@H](Cc1c[nH]cn1)C(=O)N[C@H](CC(N)=O)C(=O)N[C@H](CCCNC(=N)N)C(=O)N[C@H](CCCNC(=N)N)C(=O)N[C@H](CCCNC(=N)N)C(=O)N[C@H](CCCNC(=N)N)C(=O)N[C@H](CCCNC(=N)N)C(N)=O)[C@H](C)O		Beagle dog, plasma	intravenous, 3 mg/kg, single dose		AUC fraction of beta phase	93%
CN[C@@H](CCOc1cccc2ccccc12)c1ccccc1		healthy male human, plasma	oral, together with: dapoxetine with udenafil	relative to: combination over dapoxetine alone	t1/2β geometric mean ratio	0.992
O=C1/C(=C/c2ccc(B(O)O)cc2)CC/C1=C\c1ccc(B(O)O)cc1		water			electrophoretic mobility	-0.000118 cm2/(V·s)
CC(C)CCCC(C)CCCC(C)CCOC1O[C@H](CO)[C@@H](O)[C@H](O)[C@H]1O (some centres unmarked)	drop shape analysis	water/n-octane	solubility limit, 100 s, room temperature		interfacial tension	7.3 mN/m
COc1cc(N(C)CCN(C)C)c(NC(=O)CCSCC(NC(C)=O)C(=O)O)cc1Nc1nccc(-c2cn(C3CC3)c3ccccc23)n1 (centres unmarked)		human, urine and feces	0 to 96 h urine, 0 to 240 h feces	relative to: dose	excreted amount	2.04%
CN(CCCN=Cc1ccccc1[O-])CCN(C)CCCN=Cc1ccccc1[O-].[67Ga+3]		rat	intravenous, 2 h	relative to: heart over blood	tissue uptake ratio	33.8 ± 4.9
CCCC[C@H](NC(C)=O)C(=O)N[C@H]1CC(=O)NCCCC[C@@H](C(=O)N[C@@H](C(=O)N2CCC[C@@H]2C(N)=O)C(C)C)NC(=O)[C@H](Cc2c[nH]c3ccccc23)NC(=O)[C@H](CCCN=C(N)N)NC(=O)[C@@H](Cc2ccc3ccccc3c2)NC(=O)[C@@H]2CCCN2C1=O		healthy dogs, plasma	subcutaneous, 2.25 mg/kg per day, day 1, 24 h post-dose, median		plasma histamine	9.4 ng/mL
COCCOCCOCCOCCOCCOCCOCCOCCC(=O)NCCCc1cc2cc3nc(cc4[nH]c(cc5nc(c(OC)c1[nH]2)C(=O)C5(C)C)cc4CCc1ccc(C(=O)O)cc1)CC3(C)C		DMF	room temperature		singlet excited-state lifetime	3.03 ns and 3 ns
CCc1c2c(nc3ccc(O)cc13)-c1cc3c(c(=O)n1C2)COC(=O)[C@]3(O)CC		human patients, plasma	intravenous, 42 mg/m^2 of parent drug		AUC(0-inf)	570 ng·h/mL
CC(C)c1cnc(-c2cc(Cl)ccc2F)cc1Nc1ccncc1C(=O)NC(CO)CO		patients, phase I monotherapy	oral, dose not given, grade 1		patients with AST increase	14.3%
COC(=O)c1ccc(-c2cn(Cc3cc(Cl)ccc3O[11CH3])nn2)cc1	PET one-tissue compartment model	rhesus monkey, white matter	dose not given		distribution volume (VT)	0.496 mL/cm³
CC(C)[C@H](NC(=O)[C@@H]1CCCN1C(=O)[C@H](CCCNC(=N)N)NC(=O)[C@H](CS)NC(=O)[C@H](Cc1c[nH]c2ccccc12)NC(=O)[C@H](CCCNC(=N)N)NC(=O)[C@@H](Cc1ccccc1)NC(=O)[C@H](Cc1c[nH]cn1)NC(=O)[C@H](CCC(=O)O)NC(=O)[C@H](CS)NC(=O)[C@H](CS)NC(=O)[C@@H]1CC(=O)N[C@@H](CCCNC(=N)N)C(=O)NCC(=O)N[C@@H](CC(=O)O)C(=O)N[C@H](Cc2ccc(O)cc2)C(=O)N1)C(N)=O [technetium-99m labelled]		C57 mouse, female, B16/F1 melanoma	intravenous, 0.037 MBq, 24 h	relative to: tumour over blood	tumour to tissue ratio	71.8
COc1cc(/C=C/C(=O)N2CCc3ccccc3C2)ccc1O[11CH3]	PET-CT imaging	C57BL/6 mouse, male, heart	intravenous, 5 min		uptake	14.2 ± 0.18 %ID/cc
NC(=O)[C@@H](CCCCNC(=O)CNC(=O)CCC(=O)NCCc1c[nH]cn1)NC(=O)[C@@H](CCC(=O)O)NC(=O)[C@@H](CCCCNC(=O)CNC(=O)CCC(=O)NCCc1c[nH]cn1)NC(=O)[C@@H](Cc1ccc(O)cc1)NC(=O)CN1CCN(CC(=O)O)CCN(CC(=O)O)CCN(CC(=O)O)CC1 [indium-111 labelled]	SPECT	human, CEACAM5-expressing tumours, tumour	intravenous, dose not given, 24 h, together with: TF2 pretargeting 75 mg		tumour activity concentration	4.4 %ID/kg
CC(=O)N[C@H](CC(=O)O)C(=O)N[C@H](Cc1c[nH]c2ccccc12)C(=O)N[C@H](Cc1ccccc1)C(=O)N[C@H](CCCCN)C(=O)N[C@H](C)C(=O)N[C@H](Cc1ccccc1)C(=O)N[C@H](Cc1ccc(O)cc1)C(=O)N[C@H](CC(=O)O)C(=O)N[C@H](CCCCN)C(=O)N[C@@H](C(=O)N[C@H](C)C(=O)N[C@H](CCC(=O)O)C(=O)N[C@H](CCCCN)C(=O)N[C@H](Cc1ccccc1)C(=O)N[C@H](CCCCN)C(=O)N[C@H](CCC(=O)O)C(=O)N[C@H](C)C(=O)N[C@H](Cc1ccccc1)C(N)=O)C(C)C		statin-treated high-risk CHD men, plasma	oral, 500 mg daily, day 1, 0 to 2 h, mean observed, outlier excluded		AUC(0-t)	32.9 ng·h/mL
Cn1c(=O)oc2ccc(-c3ccc(CC(C#N)NC(=O)C4CNCCCO4)c(F)c3)cc21 (centres unmarked)		human, plasma	80 mg, single dose, fasted, mean		half-life	18.1 h
CC(C)[C@H](NC(=O)CNC(=O)[C@H](CCC(N)=O)NC(=O)[C@H](C)N)C(=O)O	LC-MS/MS	human, male, plasma	intravenous, 10 mg/kg three times daily, day 1, first dose, 10 min infusion, geometric mean		clearance	600 mL/min/kg
CCc1cc(Nc2nc(-c3ccc(-n4cnc(C)c4)c(F)c3)cs2)c(C)cc1C		human, both sexes, plasma	oral, 100 mg, day 1, multiple dose, geometric mean		AUC(0-last)	1760 ng·h/mL
CCc1nc(N)nc(N)c1C#CC(C)c1cc(-c2cc(C)nc(C)c2)ccc1Cl (centres unmarked)	extrapolated from hepatocyte CLint	pooled human hepatocytes	1 µM		hepatic clearance	~10 mL/min/kg
CCCC[C@@H]1NC(=O)[C@@H](NC(=O)[C@H](CCC(=O)O)NC(=O)CNC(=O)CN2CCN(CC(=O)O)CCN(CC(=O)O)CCN(CC(=O)O)CC2)CCCCNC(=O)C[C@@H](C(N)=O)NC(=O)[C@H](C(C)C)NC(=O)[C@@H]2CCCN2C(=O)[C@H](CCCNC(=N)N)NC(=O)CNC(=O)[C@H](Cc2c[nH]c3ccccc23)NC(=O)[C@H](CCCNC(=N)N)NC(=O)[C@@H](Cc2ccccc2)NC(=O)[C@H](Cc2c[nH]cn2)NC(=O)[C@H](CCC(=O)O)NC1=O [gallium-67 labelled]		C57 mice with B16/F1 melanoma, stomach	intravenous, 0.037 MBq, 0.5 h		tissue uptake	1.3 ± 0.36 %ID/g
N#Cc1cnc2cc(OCC3CCNCC3)c(F)cc2c1Nc1cc(F)c(OCc2cccc(Cl)n2)cc1Cl		male beagle dog, plasma	oral, 5 mg/kg		MRT	8.41 h
Oc1cc(C(F)(F)F)ccc1-c1nc2c(C(F)(F)F)cc(C(F)(F)F)cc2[nH]1	hemolysis	defibrinated sheep blood			HC50	252 µM
C#CCOc1ccc(/C=C2\SC(=O)N(CC(=O)NCc3ccccc3)C2=O)cc1	inverse Kirkwood-Buff integrals	binary solvent mixture	298.15 K, mole fraction x1 0.65		Kirkwood-Buff integral G2,3	-366 cm³/mol
CCC(C)N(C)C(=O)c1nc(-c2cccc(C(F)(F)[18F])c2)c2ccccc2n1 (centres unmarked)		mouse, lung	intravenous, 3.7 MBq, 4 h		tracer uptake	3.12 %ID/g
CC(C)C[C@@H](N)C(=O)N[C@H](CC(=O)O)C(=O)N[C@@H](C(=O)N[C@H](Cc1ccccc1)C(=O)N[C@H](CC(C)C)C(=O)N[C@H](Cc1ccc(O)cc1)C(=O)N[C@H](CO)C(=O)N[C@H](CCC(=O)O)C(=O)O)C(C)C		4T1 and MC-38 tumour mice	dose not given		ALT level	no effect
CC(C)(O)c1ncc([S@](N)(=O)=NC(=O)Nc2c3c(cc4c2CCC4)CCC3)s1		healthy human subjects	oral, dose not given		subjects with drug-related TEAEs	22%
O=C(O[C@@H]1Cc2c(O)cc(O)cc2O[C@@H]1c1cc(O)c(O)c(O)c1)c1cc(O)c(O)c(O)c1		human, male, plasma	oral, 135 mg, catechin-rich beverage		AUC(0-6h)	0.664 ± 0.0778 µM·h
COc1ccnc(C[S+]([O-])c2nc3cc(-n4cccc4)ccc3[nH]2)c1C (centres unmarked)		male Sprague Dawley rats, plasma	oral, 5 mg/kg ilaprazole racemate	relative to: compound over R-ilaprazole	Vz/F ratio	0.56
C#CCN(CCCNC(=O)CCCCC[N+]1=C(/C=C/C2=C(Cl)C(=C/C=C3\N(CCCCCC(=O)[O-])c4ccccc4C3(C)C)/CCC2)C(C)(C)c2ccccc21)CCCOc1ccc(Cl)cc1Cl		mouse plasma	0.01 µg/mL nominal, 2 weeks, -80 °C		concentration	10 ± 4 ng/mL

Some of these lines once more:
Compound	assay	system	conditions	scale	endpoint	result
CC(C)CCCC(C)CCCC(C)CCOC1O[C@H](CO)[C@@H](O)[C@H](O)[C@H]1O (some centres unmarked)	drop shape analysis	water/n-octane	solubility limit, 100 s, room temperature		interfacial tension	7.3 mN/m
O=C(O[C@@H]1Cc2c(O)cc(O)cc2O[C@@H]1c1cc(O)c(O)c(O)c1)c1cc(O)c(O)c(O)c1		human, male, plasma	oral, 135 mg, catechin-rich beverage		AUC(0-6h)	0.664 ± 0.0778 µM·h
